# Literature values that unrelated publications cite.
# Lines come from different studies, so protocols differ.
Structure (SMILES),system,conditions,Cmax
CC(C)(C)NCc1ccc(Nc2ccnc3cc(Cl)ccc23)cc1O,human,2000 mg once daily,1500 nM
CCOc1ccccc1OCCN[C@H](C)Cc1ccc(OC)c(S(N)(=O)=O)c1,"human, plasma","concentration not given, range of reported values",8 to 58 nM
CC(C)(O)c1ccc2c(c1)C(=CCCN1CCC(O)(c3ccc(Cl)cc3)C(C)(C)C1)c1cccnc1CO2 (stereo not shown),human,10 mg once daily,9 nM
C=C[C@@H]1C[C@]1(NC(=O)[C@@H]1C[C@@H](Oc2ncc(OC)c3ccc(Cl)cc23)CN1C(=O)[C@@H](NC(=O)OC(C)(C)C)C(C)(C)C)C(=O)NS(=O)(=O)C1CC1,"human patients, plasma","dose not given, single or steady-state dosing, together with: with co-medication",900 nM
CNC(=C[N+](=O)[O-])NCCSCc1ccc(CN(C)C)o1,"human, plasma","concentration not given, median of reported values",2120 nM
COc1ccc2c(O[C@@H]3C[C@H]4C(=O)N[C@]5(C(=O)NS(=O)(=O)C6CC6)C[C@H]5/C=C\CCCCN(C)C(=O)[C@@H]4C3)cc(-c3nc(C(C)C)cs3)nc2c1C,"human patients, plasma","dose not given, single or steady-state dosing, together with: with co-medication",14500 nM
COC(=O)[C@H](c1ccccc1)[C@H]1CCCCN1,"human, by CES1 genotype, plasma","oral, 10 mg methylphenidate, single dose, median",6.4 ng/mL
CCc1nn(CCO)c(CC)c1Oc1cc(C#N)cc(C#N)c1,"human, plasma total",250 mg,1850 nM
CC(C)=CCN1Cc2cc(Cl)cc3[nH]c(=S)n(c23)C[C@@H]1C,human,200 mg once daily,180 nM
Cc1cc(/C=C/C#N)cc(C)c1Nc1ccnc(Nc2ccc(C#N)cc2)n1,"human, plasma total",25 mg,500 nM
C=C[C@@H]1C[C@]1(NC(=O)[C@@H]1C[C@@H](Oc2cc(-c3csc(NC(=O)C(C)C)n3)nc3c(Br)c(OC)ccc23)CN1C(=O)[C@@H](NC(=O)OC1CCCC1)C(C)(C)C)C(=O)O,"human patients, plasma","dose not given, single or steady-state dosing, together with: with co-medication",4400 nM
C=C[C@@H]1C[C@]1(NC(=O)[C@@H]1C[C@@H]2CN1C(=O)[C@H](C(C)(C)C)NC(=O)O[C@@H]1C[C@H]1CCCCCc1nc3ccc(OC)cc3nc1O2)C(=O)NS(=O)(=O)C1CC1,"healthy human subjects, plasma","200 mg, steady state",710 nM
CC(C)(C)[C@@H]1NC(=O)O[C@@H]2CCC[C@H]2OC/C=C/C(F)(F)c2nc3ccccc3nc2O[C@@H]2C[C@@H](C(=O)N[C@]3(C(=O)NS(=O)(=O)C4(C)CC4)C[C@H]3C(F)F)N(C2)C1=O,"human patients, plasma","dose not given, single or steady-state dosing, together with: with co-medication",700 nM
COc1cc2c(c(OC)c1OC)-c1ccc(OC)c(=O)cc1[C@@H](NC(C)=O)CC2,"human, plasma",concentration not given,17 nM
COc1ccccc1Oc1c(NS(=O)(=O)c2ccc(C(C)(C)C)cc2)nc(-c2ncccn2)nc1OCCO,human,"125 mg, 5.5 days",2030 nM
CC(C)(C)NC(=O)N[C@H](C(=O)N1C[C@H]2[C@@H]([C@H]1C(=O)NC(CC1CCC1)C(=O)C(N)=O)C2(C)C)C(C)(C)C (stereo partly shown),"human patients, plasma","dose not given, single or steady-state dosing, together with: with co-medication",3300 nM
O=C(O)c1ccc(CN2C[C@@H]3C[C@H]2CN3Cc2ccc(Oc3ccc(-c4ncco4)cc3)cc2)cc1,"human, plasma total",100 mg,4780 nM
O=c1n(CCCN2CCN(c3cccc(Cl)c3)CC2)nc2ccccn12,"human, plasma","concentration not given, median of reported values",2220 nM
O=C(O)CSc1nnc(Br)n1-c1ccc(C2CC2)c2ccccc12,"human, plasma total",200 mg,15000 nM
Cc1ncc2n1-c1ccc(Cl)cc1C(c1ccccc1F)=NC2,human,"oral, 7.5 mg",22 ng/mL
CC(C)[C@H](N)C(=O)NCCCS(=O)(=O)O,"human, plasma",dose not given,6460 ng/mL
C=C1C[C@@H]2[C@H](CC[C@]3(C)C(=O)CC[C@@H]23)[C@@]2(C)C=CC(=O)C=C12,"human, plasma","concentration not given, median of reported values",51 nM
CCC(=O)NC[C@@H]1C[C@H]1c1cccc2c1CCO2,"human, plasma total",20 mg,803 nM
C[C@]12C=CC(=O)C=C1CC[C@@H]1[C@@H]2C(=O)C[C@@]2(C)[C@H]1CC[C@]2(O)C(=O)CO,"human, plasma","concentration not given, median of reported values",203 nM
O=C(O)c1ccc2nc(-c3cc(Cl)cc(Cl)c3)oc2c1,"human, plasma total",20 mg,9120 nM
CN1CCN(C2=Nc3ccccc3Oc3ccc(Cl)cc32)CC1,"human, plasma","concentration not given, median of reported values",143 nM
O=C(O)[C@@H](c1ccccc1)[C@@H]1CCCCN1,"human, CES1 wild type, plasma","oral, 10 mg methylphenidate, single dose, median",103 ng/mL
CC(C)(C)NC(=O)[C@@H]1C[C@@H]2CCCC[C@@H]2CN1C[C@@H](O)[C@H](Cc1ccccc1)NC(=O)[C@H](CC(N)=O)NC(=O)c1ccc2ccccc2n1,"human, plasma","concentration not given, median of reported values",1790 nM
CC[C@@H]1C[C@]1(NC(=O)[C@@H]1C[C@@H]2CN1C(=O)[C@H](C(C)(C)C)NC(=O)OCC(C)(C)CCCCc1cccc3c1CN(C3)C(=O)O2)C(=O)NS(=O)(=O)C1CC1,"human patients, plasma","dose not given, single or steady-state dosing, together with: with co-medication",6500 nM
COc1ccc(C(=O)Nc2ccccc2CCC2CCCCN2C)cc1 (stereo not shown),"human, plasma","concentration not given, median of reported values",1760 nM
CC1(C)CCC(CN2CCN(c3ccc(C(=O)NS(=O)(=O)c4ccc(NCC5CCOCC5)c([N+](=O)[O-])c4)c(Oc4cnc5[nH]ccc5c4)c3)CC2)=C(c2ccc(Cl)cc2)C1,human,"oral, 100 mg single dose",500 ng/mL

# Repeated from above:
Structure (SMILES),system,conditions,Cmax
CCc1nn(CCO)c(CC)c1Oc1cc(C#N)cc(C#N)c1,"human, plasma total",250 mg,1850 nM
CC(C)=CCN1Cc2cc(Cl)cc3[nH]c(=S)n(c23)C[C@@H]1C,human,200 mg once daily,180 nM
Cc1cc(/C=C/C#N)cc(C)c1Nc1ccnc(Nc2ccc(C#N)cc2)n1,"human, plasma total",25 mg,500 nM
